Experimental data collected from several papers.
Compare with care: the assays were run in different laboratories. ± marks the error that the study gave.

| Structure (SMILES) | assay | system | setting | tissue uptake |
| --- | --- | --- | --- | --- |
| N=C(N)NCCC[C@@H]1NC(=O)[C@H](CCCCNC(=O)CCC(NC(=S)Nc2ccc(CC3CN(CC(=O)O)CCN(CC(=O)O)CCN(CC(=O)O)CCN3CC(=O)O)cc2)C(=O)NCCCC[C@@H]2NC(=O)[C@@H](Cc3ccc(O)cc3)NC(=O)[C@H](CC(=O)O)NC(=O)CNC(=O)[C@H](CCCNC(=N)N)NC2=O)NC(=O)[C@@H](Cc2ccc(O)cc2)NC(=O)[C@H](CC(=O)O)NC(=O)CNC1=O (some centres unmarked) [scandium-44 labelled] | PET imaging | female athymic nude mouse, U-87 MG xenograft tumour | intravenous, 5.5 to 7.4 MBq, 2 h | 3.07 ± 1.17 %ID/g |
| CCCC[C@H](NC(=O)[C@H](Cc1cccs1)NC(=O)[C@H](Cc1c[nH]cn1)NC(=O)CCNC(=O)[C@@H](NC(=O)[C@H](C)NC(=O)[C@H](Cc1c[nH]c2ccccc12)NC(=O)[C@H](CCC(N)=O)NC(=O)[C@H](Cc1cccs1)NC(=O)CN1CCC(NC(=O)CN(CCN(CCN(CC(=O)O)CC(=O)O)CC(=O)O)CC(=O)O)CC1)C(C)C)C(N)=O [indium-111 labelled] |  | Swiss nu/nu mouse, male, PC-3 tumour xenograft, tumour | intravenous, 10 pmol, 4 h | 0.7 ± 0.2 %ID/g |
| CCCC[C@H](NC(=O)CNC(=O)[C@H](CO)NC(=O)CNC(=O)c1ccc(NN)nc1)C(=O)N[C@H]1CC(=O)NCCCC[C@@H](C(N)=O)NC(=O)[C@H](Cc2c[nH]c3ccccc23)NC(=O)[C@H](CCCNC(=N)N)NC(=O)[C@@H](Cc2ccccc2)NC(=O)[C@H](Cc2c[nH]cn2)NC1=O [technetium-99m labelled] |  | C57 mouse, B16/F1 melanoma, intestines | intravenous, 0.037 MBq, 2 h | 0.72 ± 0.27 %ID |
| N=C(N)NCCC[C@@H]1NC(=O)[C@H](CCCCNC(=O)CNC(=O)CNC(=O)CNC(=O)c2ccc(NN=Cc3ccccc3S(=O)(=O)O)nc2)NC(=O)[C@@H](Cc2ccccc2)NC(=O)[C@H](CC(=O)O)NC(=O)CNC1=O [technetium-99m labelled] |  | athymic nu/nu mouse, female, U-87 MG glioma xenograft, muscle | intravenous, 30 min | 1.89 ± 0.42 %ID/g |
| N=C(N)NCCC[C@@H]1NC(=O)[C@H](CCCCNC(=O)CCOCCOCCOCCOCCNC(=O)CC[C@H](NC(=O)CCOCCOCCOCCOCCNC(=O)CC[C@H](NC(=O)CN2CCN(CC(=O)O)CCN(CC(=O)O)CCN(CC(=O)O)CC2)C(=O)NCCOCCOCCOCCOCCC(=O)N[C@@H](CCC(=O)NCCOCCOCCOCCOCCC(=O)NCCCC[C@@H]2NC(=O)[C@@H](Cc3ccccc3)NC(=O)[C@H](CC(=O)O)NC(=O)CNC(=O)[C@H](CCCNC(=N)N)NC2=O)C(=O)NCCOCCOCCOCCOCCC(=O)NCCCC[C@@H]2NC(=O)[C@@H](Cc3ccccc3)NC(=O)[C@H](CC(=O)O)NC(=O)CNC(=O)[C@H](CCCNC(=N)N)NC2=O)C(=O)NCCOCCOCCOCCOCCC(=O)NCCCC[C@@H]2NC(=O)[C@@H](Cc3ccccc3)NC(=O)[C@H](CC(=O)O)NC(=O)CNC(=O)[C@H](CCCNC(=N)N)NC2=O)NC(=O)[C@@H](Cc2ccccc2)NC(=O)[C@H](CC(=O)O)NC(=O)CNC1=O [indium-111 labelled] |  | athymic nude mouse U-87 MG xenograft, intestine | intravenous, 1 h, with: RGD2 co-injected 14 mg/kg | 0.5 %ID/g |
| CCCC[C@H](NC(=O)CNC(=O)CNC(=O)c1ccc(NN)nc1)C(=O)N[C@H]1CC(=O)NCCCC[C@@H](C(N)=O)NC(=O)[C@H](Cc2c[nH]c3ccccc23)NC(=O)[C@H](CCCNC(=N)N)NC(=O)[C@@H](Cc2ccccc2)NC(=O)[C@H](Cc2c[nH]cn2)NC1=O [technetium-99m labelled] |  | C57 mouse, B16/F1 melanoma-bearing, lung | intravenous, 0.5 h | 2.73 ± 0.76 %ID/g |
| N=C(N)NCCC[C@@H]1NC(=O)[C@H](CCCCNC(=O)CNC(=O)CNC(=O)CNC(=O)CC[C@H](NC(=O)CNC(=O)CNC(=O)CNC(=O)c2ccc(NN=Cc3ccccc3S(=O)(=O)O)nc2)C(=O)NCC(=O)NCC(=O)NCC(=O)NCCCC[C@@H]2NC(=O)[C@@H](Cc3ccccc3)NC(=O)[C@H](CC(=O)O)NC(=O)CNC(=O)[C@H](CCCNC(=N)N)NC2=O)NC(=O)[C@@H](Cc2ccccc2)NC(=O)[C@H](CC(=O)O)NC(=O)CNC1=O [technetium-99m labelled] |  | athymic nu/nu mouse, female, MDA-MB-435 xenograft, tumour | intravenous, 2 µCi, 30 min | 8.34 ± 0.39 %ID/g |
| CSCC[C@H](NC(=O)[C@H](CC(C)C)NC(=O)[C@H](Cc1c[nH]cn1)NC(=O)CNC(=O)[C@@H](NC(=O)[C@H](C)NC(=O)[C@H](Cc1c[nH]c2ccccc12)NC(=O)[C@H](CCC(N)=O)NC(=O)CCCCCNC(=O)CNC(=O)CNC(=O)CNC(=O)CSC(C)=O)C(C)C)C(N)=O [technetium-99m labelled] |  | nude mouse, PC-3 xenograft, spleen | 30 min | 1.51 ± 0.55 %ID/g |
| N=C(N)NCCC[C@H](NC(=O)[C@H](CCCCN)NC(=O)[C@H](CCC(N)=O)NC(=O)CCOCCOCCOCCNC(=O)CN1CCN(CC(=O)O)CCN(CC(=O)O)CCN(CC(=O)O)CC1)C(=O)N[C@@H](CCCCN)C(=O)N[C@@H](CCCNC(=N)N)C(=O)N[C@@H](CCCCN)C(=O)N[C@@H](CCCCN)C(=O)N[C@@H](CO)C(=O)N[C@@H](CCCNC(=N)N)C(=O)N[C@@H](Cc1ccc(O)cc1)C(=O)N[C@@H](CCCCN)C(=O)N[C@@H](CO)C(=O)O [copper-64 labelled] |  | C57BL/6 Jms mouse, male, B16-F10 melanoma, urinary bladder | intravenous, 60 min | 14.6 ± 5.81 %ID/g |
| CCCC[C@H](NC(=O)CCCCCCCNC(=O)c1ccc(NN)nc1)C(=O)N[C@H]1CC(=O)NCCCC[C@@H](C(N)=O)NC(=O)[C@H](Cc2c[nH]c3ccccc23)NC(=O)[C@H](CCCNC(=N)N)NC(=O)[C@@H](Cc2ccccc2)NC(=O)[C@H](Cc2c[nH]cn2)NC1=O [technetium-99m labelled] |  | C57 mouse, B16/F1 melanoma, bone | 2 h, with: L-lysine 12 mg co-injected | 0.33 ± 0.3 %ID/g |
| N=C(N)NCCC[C@@H]1NC(=O)[C@H](CC(=O)NC23CNCCNCC(N)(CNCCNC2)CNCCNC3)NC(=O)[C@@H](Cc2ccccc2)NC(=O)[C@H](CC(=O)O)NC(=O)CNC1=O [copper-64 labelled] |  | Nu/Nu mouse, male, tumour-bearing, bone | intravenous, 10 µCi, 4 h | 0.23 ± 0.12 %ID/g |
| CCCC[C@H](NC(=O)COCCOCCNC(=O)c1ccc(NN)nc1)C(=O)N[C@H]1CC(=O)NCCCC[C@@H](C(N)=O)NC(=O)[C@H](Cc2c[nH]c3ccccc23)NC(=O)[C@H](CCCNC(=N)N)NC(=O)[C@@H](Cc2ccccc2)NC(=O)[C@H](Cc2c[nH]cn2)NC1=O [technetium-99m labelled] |  | C57 mouse, female, B16/F1 melanoma, skin | intravenous, 0.037 MBq, 2 h | 0.49 ± 0.07 %ID/g |
| CSCC[C@H](NC(=O)[C@H](CC(C)C)NC(=O)[C@H](Cc1c[nH]cn1)NC(=O)CNC(=O)[C@@H](NC(=O)[C@H](C)NC(=O)[C@H](Cc1c[nH]c2ccccc12)NC(=O)[C@H](CCC(N)=O)NC(=O)[C@H](CC(N)=O)NC(=O)CNC(=O)[C@H](Cc1ccc(O)cc1)NC(=O)[C@H](CCCNC(=N)N)NC(=O)[C@H](CCC(N)=O)NC(=O)[C@@H]1CCCN1C(=O)CN1CCN(CC(=O)O)CCN(CC(=O)O)CCN(CC(=O)O)CC1)C(C)C)C(N)=O [indium-111 labelled] |  | Swiss nu/nu mouse, male, PC-3 tumour xenograft, colon | intravenous, 10 pmol, 4 h | 1.8 ± 0.7 %ID/g |
| N=C(N)NCCC[C@@H]1NC(=O)[C@H](CCCCNC(=O)CC[C@H](NC(=O)[C@H](CCCCNC(=O)c2ccc(NN)nc2)NC(=O)c2ccc(NN)nc2)C(=O)NCCCC[C@@H]2NC(=O)[C@@H](Cc3ccccc3)NC(=O)[C@H](CC(=O)O)NC(=O)CNC(=O)[C@H](CCCNC(=N)N)NC2=O)NC(=O)[C@@H](Cc2ccccc2)NC(=O)[C@H](CC(=O)O)NC(=O)CNC1=O [technetium-99m labelled] |  | athymic nude mouse, female, U-87 MG xenograft, intestine | intravenous, 0.1 MBq, 1 h | 9.29 ± 1.66 %ID/g |

Excerpt of the above:
| Structure (SMILES) | assay | system | setting | tissue uptake |
| --- | --- | --- | --- | --- |
| CCCC[C@H](NC(=O)CNC(=O)[C@H](CO)NC(=O)CNC(=O)c1ccc(NN)nc1)C(=O)N[C@H]1CC(=O)NCCCC[C@@H](C(N)=O)NC(=O)[C@H](Cc2c[nH]c3ccccc23)NC(=O)[C@H](CCCNC(=N)N)NC(=O)[C@@H](Cc2ccccc2)NC(=O)[C@H](Cc2c[nH]cn2)NC1=O [technetium-99m labelled] |  | C57 mouse, B16/F1 melanoma, intestines | intravenous, 0.037 MBq, 2 h | 0.72 ± 0.27 %ID |
